Experimental data gathered from unrelated publications.
Each numbered part is a random draw from the data of one study; scales do not carry over between parts.

Set 1 — technique: RNA Bind-n-Seq; form: RNA; matrix: in vitro; tested at: 100 nM; baseline: input RNA pool; reading: higher = stronger binding
Target: RING finger protein unkempt homolog, zinc fingers 1-6, SBP tag (UNK, Homo sapiens, UniProt Q9C0B0, residues 30-357)
UniProt Q9C0B0, sequence (30-357, looked up): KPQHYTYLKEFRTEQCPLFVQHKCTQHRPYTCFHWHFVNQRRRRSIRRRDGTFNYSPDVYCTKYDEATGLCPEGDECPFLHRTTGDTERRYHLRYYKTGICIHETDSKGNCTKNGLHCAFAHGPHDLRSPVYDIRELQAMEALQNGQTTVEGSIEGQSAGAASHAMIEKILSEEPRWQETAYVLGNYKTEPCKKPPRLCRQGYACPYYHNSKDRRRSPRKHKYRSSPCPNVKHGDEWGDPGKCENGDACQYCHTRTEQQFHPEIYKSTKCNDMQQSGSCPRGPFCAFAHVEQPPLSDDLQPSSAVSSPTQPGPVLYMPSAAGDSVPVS
Setting: RNA with constant flanks, vertebrate orthologous sites, ends assumed
Shared flanks, not repeated: GGGAGUUCUACAGUCCGACGAUC … CAACAGAGGAUUGAGCAUCA
| Sequence | bound/input enrichment [ratio] |
| --- | --- |
| UGUCCUUUCUUACUGUCCCCAGCCGGGGCUGGGGACCGGUGUGUCACUGAGGACCUGCAUUAGAAACAUUUUUUAAAUUGUUGUACAGGAAGAGAUGUGUCUAAAACAGCAUCUCAAAGC | 1.23 |
| AGUAUCCCAGUUGUACCGUGUUGGGUUGGCAUUGUACAGAAAUUAACAGCCAUAUUGGUCUAGAAACAUUAAACAUAAUUUUUUCCAUUUGUACAGGGGUAACGCACUGUAUUAAAUAUG | 1.6 |
| CAGAGCAGUUACCUAGUUCGGAGCAGUCCUUACAGGGAUAUUUCGGUUCAGGCAGCGAAGCAGAUGUAUCCUACCAGCAGGAACCAUCCCAUCAGCCCUCCGUGUCCUGCAACCCCUCCA | 0.484 |
| GUGUUGGUGCAGAGUGCUCUGUACCAGUGCUCAUCAUCCCUUCUUCAUACCAAUUGUCCCUAGUUAUAGGAAUUUAAUAUUUUUAAAAGUUUUACAUUGCUGUAUAUUCAAAGAUUUGUU | 0.886 |
| UCCUCAACUUGUUCUAGCUUGUGAUCCUUCAAAAUUGGGUCAGGCAUUAUUGCUAGGUACUAGAAAUUUUGCAUUUCUCUAUUGCCAUUGAUCAGAGAGACAGACAUUAAAACAGGAAUA | 0.445 |
| GCAAAGGAAAAGCAGCCCUUCUCCCAGCCCCCCUUUCGCUAGGAGAUACAAACGUUACCGUAGAAGAGCAAUUAAACUCAAUACAUUUAUCUUUUCAGGAUGAUCCAGACUCCAGUACCA | 0.683 |
| GGACCAUACAUAUACAAUGUGUAUCAAAUGCUGGUUGCAAAAUUAAACCAUCAUCUAGAAUAGAGUUAAUUUGUUAUAAUCAAGUUACAAAUAGGUUUUCUUAAACCAGAGAUGCACCGC | 0.496 |
| AGGGAGAAGAGCUCACAAACUCAAAGGAGAACUAGGAAAGAGUUUCUAAUAGUUAAAAGCUAGGAAAGAUUAGGACAACUUUACAAAUGAGCAAUUAAAAAAAAAAGGAUAUGGAAACUA | 0.864 |
| CAUUUAGAGUCGGAAUAAAUGGCUCCAGGAUUCACGACAUCGUUCUGUGGGAUCAGACUGCAGGACGGAGACUCUCUUUAAAUUUAUAUGCUGUUUCCAAACUUACGUUGGAAGACGUUU | 0.465 |
| UUGGGACCAACUCUCCAAAUAGGAAUAGUAGUAAAAAAAAUAAGCAAAAUGAUAUUUGUAUAGAAAAAACAGAAGUUAAAUCAUGUAAAGUAAAUGCUGCCAGUGUUCCAGGUAAAGAUU | 1.78 |
| UUUUAAAGCCAUUUUUCAUGUUUCCUGUAAAUAAAGGAUAAUCAUUUUUAUUUUGUUUUCAAGUGCUGUUUUAACAAUGUGGAUAGACCAUAAAUGUACUUGCUGAAUUCAUUCAUUUUU | 0.366 |

Set 2 — technique: RNA Bind-n-Seq; form: RNA; matrix: in vitro; tested at: 1 µM; setting: whole 134-nt RNA, ends assumed; added: 150 mM KCl; baseline: input library; reading: higher = stronger binding
Target: Ras GTPase-activating protein-binding protein 1, C-terminal RGG region (G3BP1, Homo sapiens, UniProt Q13283)
UniProt Q13283, sequence (whole entry, looked up): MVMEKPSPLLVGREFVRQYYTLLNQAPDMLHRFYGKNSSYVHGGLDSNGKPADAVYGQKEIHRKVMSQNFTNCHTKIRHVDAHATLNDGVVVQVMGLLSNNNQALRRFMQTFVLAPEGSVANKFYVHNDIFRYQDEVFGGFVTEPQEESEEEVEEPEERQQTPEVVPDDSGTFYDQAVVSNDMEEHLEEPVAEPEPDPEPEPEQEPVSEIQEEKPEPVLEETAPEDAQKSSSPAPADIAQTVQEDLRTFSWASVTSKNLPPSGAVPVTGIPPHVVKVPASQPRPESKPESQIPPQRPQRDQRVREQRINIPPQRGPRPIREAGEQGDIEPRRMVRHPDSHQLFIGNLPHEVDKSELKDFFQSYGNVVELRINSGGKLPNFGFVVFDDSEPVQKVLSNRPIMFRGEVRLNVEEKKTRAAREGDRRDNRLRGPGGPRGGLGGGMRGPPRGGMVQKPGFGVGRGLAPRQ
Shared flanks, not repeated: GGGAGUUCUACAGUCCGACGAUC … UGGAAUUCUCGGGUGUCAAGG
| Sequence | log2 enrichment |
| --- | --- |
| CCUGUGCUACACAUCGUAUGUACCGAAUCGGGGAAAAAAAGGGGUUUGGGGAAAAAGGGGAAAGUAUUAUGUUACGCCGUUCGGAUCUGC | 0.955 |
| AGUCCUGUGCUACACAUCGUAUGUACCGAAUCGGGAAAAAGGGAAAAAGGGUUUGGGAAAGUAUUAUGUUACGCCGUUCGGAUCUGCACU | 0.446 |
| UAACUUUAGAGGAGGAUCUGAUGGAUAUGGCAGUGGACGUGGAUUUGGGGAUGGCUAUAAUUGGUAUGGAGGAGGACCUGGAGGUGGCAA | -0.504 |
| GUCCUGUGCUACACAUCGUAUGUACCGAAUCGGGGAAAAAGGAAAAAGGGGAAAAAGGAAAGUAUUAUGUUACGCCGUUCGGAUCUGCAC | -1.21 |
| CACAGACAACACGCACCCACACAAAAACAGAGGGAAGGGGUUGGGAUGGGGACAGGGUGCACAGCAGGGCGGGGUAGGACCCCAGCCCCU | -0.365 |
| UGGCCCUGGUGGCAUGCGGGGAGGAAGAGGUGGCCUCAUGGAUCGUGGUGGUCCCCGUGGAAUGUUCAGAGGUGGCCGUGGUGGAGACAG | 1.83 |
| AGUCCUGUGCUACACAUCGUAUGUACCGAAUCGGUUUUUGGGGUUUUUGGGUUUUUGGAAAGUAUUAUGUUACGCCGUUCGGAUCUGCAC | -1.1 |
| GCAAGAAGUAAAAACAAAUGGAAAUGCUUCGGAUAGUGGCAGGGGUGGGGGUUGCUAAGGAAAGGGUGGGAUGGGAGUGGGUAAAGAGUU | 1.15 |
| UAACUUUAGAGGAGGAUCUGAUGGAUAUGGCAGUGGACGUGGAUUUGGGGAUGGCUAUAAUGCGUAUGGAGGAGGACCUGGAGGUGGCAA | -0.568 |
| UCAAGUCCUGUGCUACACAUCGUAUGUACCGAAUCGGGGUUGGGUUGGGUUGGGGAAAGUAUUAUGUUACGCCGUUCGGAUCUGCACUUC | 2.26 |
| AGUCCUGUGCUACACAUCGUAUGUACCGAAUCGGGAAAAAGGGUGGGUUUUUUUGGGAAAGUAUUAUGUUACGCCGUUCGGAUCUGCACU | 0.947 |
| CUGUGCUACACAUCGUAUGUACCGAAUCGGGAAAAAAAGGGGAAAAAAAGGGAAAAAAAGGAAAGUAUUAUGUUACGCCGUUCGGAUCUG | -1.36 |
| UUCCUCAAGUCCUGUGCUACACAUCGUAUGUACCGAAUCGGAGGUGGAGGAAAGUAUUAUGUUACGCCGUUCGGAUCUGCACUUCCAGCA | -1.51 |
| CCUGUGCUACACAUCGUAUGUACCGAAUCGGGAAAAAAAGGGUUUUUGGGAAAAAAAGGGAAAGUAUUAUGUUACGCCGUUCGGAUCUGC | -1.92 |

Set 3 — technique: RNA Bind-n-Seq; form: RNA; matrix: in vitro; tested at: 365 nM; baseline: no-protein control; reading: higher = stronger binding
Target: RNA binding protein fox-1 homolog 2, RRM domain, GST-SBP tag (RBFOX2, Homo sapiens, UniProt O43251-10, residues 100-194)
Setting: natural RNA segment, single round, ends assumed
Shared flanks, not repeated: GGGAGUUCUACAGUCCGACGAUC … UGGAAUUCUCGGGUGCCAA
Residues (chain): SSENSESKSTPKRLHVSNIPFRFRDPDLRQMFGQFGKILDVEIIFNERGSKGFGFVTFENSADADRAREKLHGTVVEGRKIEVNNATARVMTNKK
| Sequence | RBNS enrichment (R) |
| --- | --- |
| CUGAACUAAACCCCUGGCUUUUGUGCACACUGCAUACGUUUCAGAACUCCUGGAUGGUAACCAUCUCUGGAGUGCAGCGCUUGCUGCAGUGGAAAUGAUCAGGAAUACUG | 0.246 |
| GACUGGCCGUGAUGGGAAUGACAGUGAGAAGGUCCGCCUGUGCGCGUGGAACACUGUGGACGCUCGACUUCCAAGGGUCUUCUCACCCGUAAUGCUGCAUUACAUGUAGG | 0.651 |
| CCGGACCUCAGCGUGGGGGAGCCUCCAGGCAGACGCUGGGUAUGGAGCUGUGGUGUGGUCUGUCCUGUAUGGUGGCCAGUGCUUUCUGCCAGCAUUUCUGGAUGGAUAUA | 0.352 |
| UUGUUUCUGGUUCACGUGGGGCCACCUGAAUCCGUGUCUGUGAGCAUUGACGCUUGAGUGAGCACGCCAGCGUCCUUGUCCUUAUGGGAUGCCUCAGGAUCUUGUUUCUG | 0.525 |
| UCAUAUUUAUAAGUAUGCAUUUUAUUUAAGAGGAAGUAUAGGCUUGACUCUGGUUCACAAUUUCGUACGUAGCUGGUUUGACGUAGAACUUUGUACUUCCCUUGCCGAAG | 3.84 |
| GGGCUUCUGAGGUGGCCUCCUGCCCUGAUCAGGGACCCUCCCCGCUUUCCUGGGCCUCUCAGUUGAACAAAGCAGCAAAACAAAGGCAGUUUUAUAUGAAAGAUUAGAAG | 0.619 |
| AAUAAGUCUAAAGAAAAGAAAGUGCCUUAUUUUCCUUCAUGGUCAUUCAGUCAAGUGUCUCAUAAAGAUCAGCUCCUCCCUCAGAAUACAAGUUAAUGCAUGUUACUCAG | 22.3 |
| AGCAUGAAGUUUGAGUUUUGUGUUUUUCCAAAGGAUACUUCCUUGGCCCUUUUUCUUUAUUGACUAGACCACCAGAGGAGGAUGUGUGGGAUUGUAGGCAAACCCACCUG | 0.971 |
| CCAGAAUAGUCAACAGUGUUCAAAAGAAUUGACUAGUUAUCCCUGAGGCCCUUUCAAACAUGAUCAAAGAUUUCCCAAUGUGAUCUCAUCAUCAUGGAUACUCAAUUUGU | 0.407 |
| UUUUUACUACUACAGAGAGUCUGUAAAUAAGUGCUUUAAAAAAAUAACAAACCAAUAAGAUAUUUGUCUCCUAUAUAAACAUUCUGUGUAUUUAGCACUUGAAAAUCAAC | 0.934 |
| CAGCAUUAAAUAAAACAUUUCAAAUAUAUUGUAUAUGGCUUUAGUUGUAAACUAUACUGCAUGCUGACAGAGAAGCGCUCUUUUAGCUAAGCCCAGAACUUCUCUUUUGA | 0.717 |
| UUACUUUAUGGCAUGUGCUUUUCUCCACCGGAGGAGAGAGAGGCAAGUGUCUCCCUCAGCUUGUGUCCCUUUUUUCCUCCCCUUUCUGUCCUGGGCCUCUGUGUAGAGCA | 2.36 |

Set 4 — technique: protein-binding microarray; form: double-stranded DNA, one strand shown; matrix: in vitro; tested at: not given; reading: higher = stronger binding
Target: Myc proto-oncogene protein, bHLH-zipper, MAX partner unstated (MYC, Homo sapiens, UniProt P01106, residues 368-449)
UniProt P01106, sequence (368-449, looked up): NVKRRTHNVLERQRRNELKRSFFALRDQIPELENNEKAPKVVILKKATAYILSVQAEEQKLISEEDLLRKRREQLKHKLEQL
Setting: k-mer, scored over probes, only values ≥0.25
| Sequence | E-score |
| --- | --- |
| ACGTGGAA | 0.406 |
| ACCGCACC | 0.272 |
| ATCACGCA | 0.255 |
| AACCGCGT | 0.376 |
| AGCCACGC | 0.45 |
| CATGTCGA | 0.261 |
| AACATGTG | 0.465 |
| CGGCACGC | 0.381 |
| CATGGTAG | 0.379 |
| AAACACGC | 0.408 |
| ATGCGGCG | 0.299 |
| CGCATGAC | 0.398 |
| ACACATGT | 0.457 |
| CACGAGTC | 0.406 |
| AACACGGG | 0.304 |
| CAACCACG | 0.41 |
| AGGTCACG | 0.296 |
| ATGGTCAC | 0.288 |
| GCACACGA | 0.342 |
| TGCGCGCA | 0.296 |
| CATGTCTC | 0.306 |
| CGTGGGCA | 0.37 |
| GTGTCGTA | 0.253 |

Set 5 — technique: universal PBM; form: double-stranded DNA, one strand shown; matrix: in vitro; tested at: not given; reading: higher = stronger binding
Target: Sal-like protein 4, full length isoform B (SALL4, Homo sapiens, UniProt Q9UJQ4-2, residues 1-616)
Setting: 8-mer, flanks averaged, mean of replicates
| Sequence | E-score |
| --- | --- |
| GGGTTAGA | -0.141 |
| AGTACAAG | 0.029 |
| CTCTTGTC | -0.00498 |
| CCCTTAGC | -0.266 |
| AACAACGT | 0.0244 |
| ACAGGATA | 0.225 |
| ATTAGTTA | 0.332 |
| ATGCACGA | 0.0477 |
| AGTATTTG | 0.14 |
| GATCAGCC | -0.314 |
| CGGGTCGC | -0.24 |
| TTATCAAA | 0.234 |
| CACAAGAA | 0.0128 |
| GACGCGGC | -0.172 |
| CCAATAGA | 0.15 |
| CGGGCCAC | -0.304 |
| CACTGGCG | -0.149 |
| AACGGTTG | 0.13 |
| AGCAGCAG | -0.161 |
| ACATGATG | 0.11 |
| CCAGGCGA | -0.333 |
| GTTACGTA | 0.134 |
| CGTTTCTC | -0.192 |
| ATTGGCGA | 0.131 |
| CTCATAAG | 0.187 |

Repeated from above (set 5):
| Sequence | E-score |
| --- | --- |
| CCCTTAGC | -0.266 |
| AACAACGT | 0.0244 |
| ACAGGATA | 0.225 |
| ATTAGTTA | 0.332 |
| ATGCACGA | 0.0477 |
| AGTATTTG | 0.14 |
| GATCAGCC | -0.314 |
| CGGGTCGC | -0.24 |
| TTATCAAA | 0.234 |
| CACAAGAA | 0.0128 |
